Measurements gathered from unrelated publications.
Every numbered part comes from another study and shows a few of its results, in no order.
Sequence of UniProt Q99640 (whole entry, looked up): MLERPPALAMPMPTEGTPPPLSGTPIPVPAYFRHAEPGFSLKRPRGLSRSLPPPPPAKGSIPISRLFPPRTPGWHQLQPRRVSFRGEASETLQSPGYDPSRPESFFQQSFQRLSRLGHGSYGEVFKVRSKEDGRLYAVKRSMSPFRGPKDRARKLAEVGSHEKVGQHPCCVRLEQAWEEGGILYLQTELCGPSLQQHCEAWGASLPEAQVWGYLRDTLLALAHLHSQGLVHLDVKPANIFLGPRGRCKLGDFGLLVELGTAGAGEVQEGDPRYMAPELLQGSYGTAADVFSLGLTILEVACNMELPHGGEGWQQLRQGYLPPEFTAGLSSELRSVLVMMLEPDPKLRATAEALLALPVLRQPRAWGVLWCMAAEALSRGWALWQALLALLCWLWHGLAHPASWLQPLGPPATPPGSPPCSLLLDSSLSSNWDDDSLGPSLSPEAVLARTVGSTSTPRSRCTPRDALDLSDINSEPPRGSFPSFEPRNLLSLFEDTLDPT
Sequence of UniProt P25098 (whole entry, looked up): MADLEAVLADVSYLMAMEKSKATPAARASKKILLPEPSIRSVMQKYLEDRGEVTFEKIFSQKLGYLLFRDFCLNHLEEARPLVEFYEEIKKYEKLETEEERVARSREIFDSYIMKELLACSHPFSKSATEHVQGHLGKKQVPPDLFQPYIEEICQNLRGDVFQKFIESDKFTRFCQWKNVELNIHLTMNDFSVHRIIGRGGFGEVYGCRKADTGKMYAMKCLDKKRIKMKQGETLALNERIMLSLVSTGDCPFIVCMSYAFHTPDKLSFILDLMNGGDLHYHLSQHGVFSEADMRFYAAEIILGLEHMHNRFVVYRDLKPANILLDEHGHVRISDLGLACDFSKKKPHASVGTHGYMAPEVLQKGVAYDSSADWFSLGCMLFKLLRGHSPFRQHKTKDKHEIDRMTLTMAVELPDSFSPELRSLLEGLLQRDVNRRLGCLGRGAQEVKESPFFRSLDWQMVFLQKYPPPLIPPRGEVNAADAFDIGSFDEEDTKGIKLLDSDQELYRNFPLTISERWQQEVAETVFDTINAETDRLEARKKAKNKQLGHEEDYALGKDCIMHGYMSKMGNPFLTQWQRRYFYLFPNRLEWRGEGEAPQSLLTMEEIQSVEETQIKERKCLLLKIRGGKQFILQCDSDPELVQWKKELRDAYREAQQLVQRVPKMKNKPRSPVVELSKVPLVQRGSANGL
Sequence of UniProt Q8IYL9 (whole entry, looked up): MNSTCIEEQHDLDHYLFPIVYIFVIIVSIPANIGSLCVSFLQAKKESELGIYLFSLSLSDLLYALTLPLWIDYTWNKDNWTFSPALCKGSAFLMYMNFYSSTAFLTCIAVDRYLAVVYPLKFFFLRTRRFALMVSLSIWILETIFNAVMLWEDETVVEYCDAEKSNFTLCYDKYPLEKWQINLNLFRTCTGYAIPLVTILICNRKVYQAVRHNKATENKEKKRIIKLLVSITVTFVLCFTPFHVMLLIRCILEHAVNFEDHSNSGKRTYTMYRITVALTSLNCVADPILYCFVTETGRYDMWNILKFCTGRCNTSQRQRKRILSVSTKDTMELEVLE
Sequence of UniProt Q12852 (whole entry, looked up): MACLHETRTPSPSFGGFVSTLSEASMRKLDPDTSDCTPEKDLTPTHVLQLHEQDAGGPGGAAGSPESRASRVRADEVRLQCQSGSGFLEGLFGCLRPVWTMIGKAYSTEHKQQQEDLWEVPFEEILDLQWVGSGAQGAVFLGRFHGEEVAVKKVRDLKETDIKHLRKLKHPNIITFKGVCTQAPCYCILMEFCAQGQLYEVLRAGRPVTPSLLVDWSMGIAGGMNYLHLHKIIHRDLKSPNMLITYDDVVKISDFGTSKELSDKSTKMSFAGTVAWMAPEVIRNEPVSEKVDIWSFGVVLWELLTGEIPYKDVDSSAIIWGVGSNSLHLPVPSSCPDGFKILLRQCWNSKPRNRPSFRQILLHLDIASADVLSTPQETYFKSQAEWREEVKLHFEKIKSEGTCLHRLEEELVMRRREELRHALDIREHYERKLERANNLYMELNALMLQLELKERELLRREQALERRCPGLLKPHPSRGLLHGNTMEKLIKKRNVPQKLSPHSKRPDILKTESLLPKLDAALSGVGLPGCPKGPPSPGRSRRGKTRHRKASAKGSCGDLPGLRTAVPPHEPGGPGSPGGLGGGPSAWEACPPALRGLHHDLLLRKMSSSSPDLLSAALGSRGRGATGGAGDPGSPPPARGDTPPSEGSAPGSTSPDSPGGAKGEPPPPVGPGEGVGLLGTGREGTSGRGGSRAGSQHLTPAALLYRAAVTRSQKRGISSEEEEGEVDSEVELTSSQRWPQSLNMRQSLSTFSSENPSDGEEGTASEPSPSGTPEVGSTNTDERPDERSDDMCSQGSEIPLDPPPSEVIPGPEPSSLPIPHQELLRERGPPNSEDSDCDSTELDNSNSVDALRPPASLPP
Sequence of UniProt P49840 (whole entry, looked up): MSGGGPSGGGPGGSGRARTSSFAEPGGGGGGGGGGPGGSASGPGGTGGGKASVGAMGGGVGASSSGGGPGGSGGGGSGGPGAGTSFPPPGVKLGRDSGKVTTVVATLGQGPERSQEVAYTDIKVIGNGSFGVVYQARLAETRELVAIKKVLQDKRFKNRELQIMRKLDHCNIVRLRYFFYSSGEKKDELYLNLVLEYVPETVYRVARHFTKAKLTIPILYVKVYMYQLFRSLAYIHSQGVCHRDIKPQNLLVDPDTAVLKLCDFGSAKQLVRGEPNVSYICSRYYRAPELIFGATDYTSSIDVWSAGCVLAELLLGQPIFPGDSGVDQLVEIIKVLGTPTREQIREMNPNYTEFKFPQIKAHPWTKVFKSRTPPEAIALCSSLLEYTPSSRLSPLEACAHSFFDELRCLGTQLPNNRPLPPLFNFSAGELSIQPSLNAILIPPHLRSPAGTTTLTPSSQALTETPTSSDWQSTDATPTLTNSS
Sequence of UniProt P07332 (whole entry, looked up): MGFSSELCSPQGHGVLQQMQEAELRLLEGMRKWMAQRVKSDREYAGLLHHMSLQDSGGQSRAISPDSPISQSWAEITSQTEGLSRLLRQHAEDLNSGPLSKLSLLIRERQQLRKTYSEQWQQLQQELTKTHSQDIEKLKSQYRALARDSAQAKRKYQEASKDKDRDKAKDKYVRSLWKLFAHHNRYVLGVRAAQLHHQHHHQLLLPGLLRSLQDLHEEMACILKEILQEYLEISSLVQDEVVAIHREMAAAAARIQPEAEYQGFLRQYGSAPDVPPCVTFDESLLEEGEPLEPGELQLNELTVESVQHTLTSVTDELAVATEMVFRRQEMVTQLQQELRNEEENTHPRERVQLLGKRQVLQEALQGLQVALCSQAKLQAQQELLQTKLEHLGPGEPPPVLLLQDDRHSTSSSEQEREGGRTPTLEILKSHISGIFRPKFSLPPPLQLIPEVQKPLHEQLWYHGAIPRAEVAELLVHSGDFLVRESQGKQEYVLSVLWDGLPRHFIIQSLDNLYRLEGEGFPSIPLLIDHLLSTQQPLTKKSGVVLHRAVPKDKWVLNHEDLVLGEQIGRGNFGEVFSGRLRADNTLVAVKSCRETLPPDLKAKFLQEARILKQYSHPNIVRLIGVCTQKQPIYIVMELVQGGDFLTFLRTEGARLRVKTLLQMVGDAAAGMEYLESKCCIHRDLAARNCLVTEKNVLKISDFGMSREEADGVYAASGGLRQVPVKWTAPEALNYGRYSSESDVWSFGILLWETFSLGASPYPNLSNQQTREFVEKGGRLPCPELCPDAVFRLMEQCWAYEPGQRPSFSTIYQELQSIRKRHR

Sample 1
Structure (SMILES): COc1cccc(CNC(=O)c2nc3scc(COCc4ccc(C(=O)O)cc4)c3c(=O)[nH]2)c1
Effect on: cell-free assay
Method: competition with immobilised ligand
Concentration: 1 µM
target	remaining binding [%]
GSK3A (Homo sapiens, UniProt P49840)	100
GRK2 (Homo sapiens, UniProt P25098)	50.1
PKMYT1 (Homo sapiens, UniProt Q99640)	88

Sample 2
Target: Platelet-derived growth factor receptor alpha (PDGFRA, Homo sapiens, UniProt P16234)
Sequence of UniProt P16234 (whole entry, looked up): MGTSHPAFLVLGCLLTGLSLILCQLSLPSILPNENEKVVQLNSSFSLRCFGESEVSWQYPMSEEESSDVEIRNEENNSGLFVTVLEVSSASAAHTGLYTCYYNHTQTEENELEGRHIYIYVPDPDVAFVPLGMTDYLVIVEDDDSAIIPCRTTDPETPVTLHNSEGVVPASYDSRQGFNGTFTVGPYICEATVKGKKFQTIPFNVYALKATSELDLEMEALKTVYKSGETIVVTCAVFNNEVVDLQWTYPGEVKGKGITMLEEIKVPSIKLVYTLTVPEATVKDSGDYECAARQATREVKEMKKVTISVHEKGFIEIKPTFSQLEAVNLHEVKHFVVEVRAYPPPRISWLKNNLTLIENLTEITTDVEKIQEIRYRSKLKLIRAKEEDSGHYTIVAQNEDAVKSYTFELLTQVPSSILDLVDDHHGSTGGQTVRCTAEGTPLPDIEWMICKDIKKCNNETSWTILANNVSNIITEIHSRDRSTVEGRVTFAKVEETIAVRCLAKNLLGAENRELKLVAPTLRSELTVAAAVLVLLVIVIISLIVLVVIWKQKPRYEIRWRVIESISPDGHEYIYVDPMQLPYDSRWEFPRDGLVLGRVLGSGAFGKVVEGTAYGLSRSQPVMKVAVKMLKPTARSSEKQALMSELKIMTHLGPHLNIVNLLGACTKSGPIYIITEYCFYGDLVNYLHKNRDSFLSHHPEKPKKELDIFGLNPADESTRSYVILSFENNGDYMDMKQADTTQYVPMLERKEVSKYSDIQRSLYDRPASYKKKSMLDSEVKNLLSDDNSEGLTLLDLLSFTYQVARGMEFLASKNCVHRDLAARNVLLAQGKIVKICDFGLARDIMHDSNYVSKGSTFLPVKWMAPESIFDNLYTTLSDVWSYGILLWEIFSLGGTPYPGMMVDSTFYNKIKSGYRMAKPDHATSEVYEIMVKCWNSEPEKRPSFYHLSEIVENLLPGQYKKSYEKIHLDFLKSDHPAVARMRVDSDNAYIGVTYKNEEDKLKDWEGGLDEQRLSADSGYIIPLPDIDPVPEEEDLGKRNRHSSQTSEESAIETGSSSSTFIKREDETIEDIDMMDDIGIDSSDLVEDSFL
Effect on: enzyme activity
Mode: inhibitor
Concentration: 0.5 µM
Baseline: control
SMILES	remaining activity [%]
CN(C)c1ccc(C=C2C(=O)Nc3ccccc32)cc1	79.9
N#CC(C#N)=C(N)/C(C#N)=C/c1ccc(O)cc1	97.8
CCOC(=O)c1c(C)[nH]c(/C=C2\C(=O)Nc3ccccc32)c1C	82.8
Nc1[nH]nc2nc3ccccc3nc12	103
COc1cc2ncnc(Nc3ccc(F)c(Cl)c3)c2cc1OCCCN1CCOCC1	97
CNC(=O)c1cc(Oc2ccc(NC(=O)Nc3ccc(Cl)c(C(F)(F)F)c3)cc2)ccn1	7.77
CO[C@H]1C[C@@H]2CC[C@@H](C)[C@@](O)(O2)C(=O)C(=O)N2CCCC[C@H]2C(=O)O[C@H]([C@H](C)C[C@@H]2CC[C@@H](O)[C@H](OC)C2)CC(=O)[C@H](C)/C=C(\C)[C@@H](O)[C@@H](OC)C(=O)[C@H](C)C[C@H](C)/C=C/C=C/C=C/1C	95.1
O=C(Nc1cccc(Nc2cc(Nc3cccc(C(F)(F)F)c3)ncn2)c1)C1CC1	86.4
O=C1NC(=O)C(c2cn(CCCn3ccnc3)c3ccccc23)=C1Nc1ccccc1	94.1
Cc1ccc(NC(=O)c2ccc(CN3CCN(C)CC3)cc2)cc1Nc1nc(-c2cccnc2)cs1	1.64
COc1ccc(C(=O)Nc2sc3c(c2C(N)=O)CCCC3)cc1OC	96.4
COc1ccc(CNC(=O)Nc2ncc([N+](=O)[O-])s2)cc1	93
NCCNc1ncc(C(N)=O)c(Nc2cccc(C(F)(F)F)c2)n1	95.4
O=C(CCCc1ccc(-c2ccccc2F)cc1)Nc1ccc(O)cc1	96.5

Sample 3
SMILES: CC(C)S(=O)(=O)c1ccc2nccc(Nc3ccc4sc(C5CCCC5)nc4c3)c2c1.Cl
Effect on: kinase activity
Mode: inhibitor
Concentration: 1 µM
target	remaining activity
SGK2 (Homo sapiens, UniProt Q9HBY8)	101%
Aurora kinase B (AURKB, Homo sapiens, UniProt Q96GD4)	98%
FES (Homo sapiens, UniProt P07332)	97%

Sample 4
Structure (SMILES): N=C(N)NC(=O)c1cnn(-c2cccc3ncccc23)c1C1CC1
Effect on: β-arrestin recruitment
Mode: agonist
Method: PRESTO-Tango
Concentration: 10 µM
Baseline: untreated
target	fold over basal
GPR65 (Homo sapiens, UniProt Q8IYL9)	0.78
AGTR1 (Homo sapiens, UniProt P30556)	0.79
C5AR1 (Homo sapiens, UniProt P21730)	0.97

Sample 5
SMILES: C[C@H]1CC[C@H](n2c3cnccc3c3cnc(Nc4ccc5c(n4)CCN(C(=O)CO)C5)nc32)CC1
Effect on: cell-free assay
Concentration: 1 µM
target	remaining signal [%]
ROS1 (Homo sapiens, UniProt P08922)	100
AKT1 (Homo sapiens, UniProt P31749)	100
MAP3K12 (Homo sapiens, UniProt Q12852)	100
MARK4 (Homo sapiens, UniProt Q96L34)	68
FLT3 (Homo sapiens, UniProt P36888, R834Q)	14

For quick reference, copied from above (sample 1):
target	remaining binding [%]
GRK2 (Homo sapiens, UniProt P25098)	50.1
GSK3A (Homo sapiens, UniProt P49840)	100
PKMYT1 (Homo sapiens, UniProt Q99640)	88
